Values quoted from earlier work that unrelated publications cite.
Protocols differ between the studies behind these lines. Several values in a cell are separate wells, animals, samples, runs or records.
UniProt P0AA25, sequence (whole entry, looked up): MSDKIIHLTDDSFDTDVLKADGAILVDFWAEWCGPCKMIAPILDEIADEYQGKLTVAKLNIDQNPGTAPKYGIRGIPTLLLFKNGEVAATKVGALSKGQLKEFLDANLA
UniProt P0AES9, sequence (whole entry, looked up): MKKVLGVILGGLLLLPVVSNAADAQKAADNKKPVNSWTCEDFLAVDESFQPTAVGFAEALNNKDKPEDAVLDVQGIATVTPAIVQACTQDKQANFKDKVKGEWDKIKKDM
UniProt P11632, sequence (whole entry, looked up): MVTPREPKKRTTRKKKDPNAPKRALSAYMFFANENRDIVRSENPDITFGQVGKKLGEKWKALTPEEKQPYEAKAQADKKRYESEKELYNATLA
UniProt P0ACD4, sequence (whole entry, looked up): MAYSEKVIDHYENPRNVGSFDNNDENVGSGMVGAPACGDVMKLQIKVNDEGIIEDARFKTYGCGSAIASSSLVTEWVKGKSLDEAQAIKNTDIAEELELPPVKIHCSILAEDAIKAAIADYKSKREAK
UniProt Q01727, sequence (whole entry, looked up): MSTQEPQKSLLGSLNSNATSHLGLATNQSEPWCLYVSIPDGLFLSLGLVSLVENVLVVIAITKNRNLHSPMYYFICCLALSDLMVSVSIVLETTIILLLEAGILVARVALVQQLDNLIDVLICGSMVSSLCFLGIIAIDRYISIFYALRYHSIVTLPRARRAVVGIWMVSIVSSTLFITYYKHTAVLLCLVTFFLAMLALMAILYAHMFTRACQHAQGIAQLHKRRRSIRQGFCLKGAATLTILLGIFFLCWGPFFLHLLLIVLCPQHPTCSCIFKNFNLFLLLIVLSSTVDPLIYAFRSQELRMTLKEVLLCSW
UniProt P00698, sequence (whole entry, looked up): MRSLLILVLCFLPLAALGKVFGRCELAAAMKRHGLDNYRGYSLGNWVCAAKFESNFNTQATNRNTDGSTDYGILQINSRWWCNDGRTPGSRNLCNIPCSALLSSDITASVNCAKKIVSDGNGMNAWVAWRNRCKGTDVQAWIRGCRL

hdeA mature protein (Escherichia coli, UniProt P0AES9) — pKa (NMR, measured: Asp47; 298 K, numbering of the source): 4.14
GWKALEEKLKALEEKLKALEEEHKALEEKG (designed coiled-coil peptide L2W/K22E/L23H; N-acetyl, C-terminal amide, Cu(II) bound) — pKa (UV-vis, measured: Glu22; peptide): 6.33
CVRLHESCLGQQVPCCDPCATCYCRFFNAFCYCR (agouti-related protein (87–120); sequence looked up) — EC50 (Mc1r (Mus musculus, UniProt Q01727); reporter gene, agonist, beta-galactosidase reporter; peptide): > 100000 nM
SDNKTYG (OMTKY3 peptide residues 26-32 (Meleagris gallopavo); N-acetyl, C-terminal methylamide) — pKa (NMR, measured: Asp3; peptide; numbering of the source): 3.6
LYZ (Gallus gallus, UniProt P00698) — pKa (NMR, measured: Asp48; NaCl 100 mM, numbering of the source): 1.4
insulin glulisine — Cmax (measured: total insulin; human; subcutaneous abdomen, 0.2 U/kg, dose-adjusted from 0.1 U/kg): 1 nM
trxA (Escherichia coli, UniProt P0AA25) — pKa (NMR, measured: Cys35; reduced, no protein ligand, numbering of the source): > 11 and 9.4 and 7.05
IscU apo (Escherichia coli, UniProt P0ACD4) — pKa (NMR, measured: His10; NaCl 150 mM, D-state, apo): 6.9
hdeA mature, 89 residues (Escherichia coli, UniProt P0AES9) — pKa (NMR, measured: Glu37; 25 °C, numbering of the source): > 5
MKVIFLKDVKGKGKKGEIKNVA (rplI NTL9 residues 1-22 (Geobacillus stearothermophilus)) — pKa (NMR, measured: Glu17; peptide): 4.05
AGTTGAGGGGACTTTCCCAGGC (dsDNA) — Kd (NHP6A 1-93 (Saccharomyces cerevisiae, UniProt P11632); fluorescence anisotropy; double-stranded DNA, one strand shown): 10 nM

A few entries again:
SDNKTYG (OMTKY3 peptide residues 26-32 (Meleagris gallopavo); N-acetyl, C-terminal methylamide) — pKa (NMR, measured: Asp3; peptide; numbering of the source): 3.6
